Assay results gathered from unrelated publications.
Numbered parts are unrelated; each lists some results of a single study. Changes are numbered by the printed parent chain.
UniProt Q969T4, sequence (whole entry, looked up): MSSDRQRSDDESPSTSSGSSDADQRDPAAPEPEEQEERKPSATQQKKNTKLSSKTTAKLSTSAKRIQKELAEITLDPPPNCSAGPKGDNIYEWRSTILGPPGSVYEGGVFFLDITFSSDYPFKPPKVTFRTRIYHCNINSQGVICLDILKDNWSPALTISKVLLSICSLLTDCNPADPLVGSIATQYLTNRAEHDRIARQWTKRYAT
UniProt P62253, sequence (whole entry, looked up): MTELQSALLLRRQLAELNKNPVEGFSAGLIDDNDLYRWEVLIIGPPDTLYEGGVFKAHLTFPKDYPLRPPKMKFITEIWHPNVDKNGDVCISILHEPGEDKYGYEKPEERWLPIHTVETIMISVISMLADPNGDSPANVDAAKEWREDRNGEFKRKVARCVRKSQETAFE
UniProt Q7Z7E8, sequence (whole entry, looked up): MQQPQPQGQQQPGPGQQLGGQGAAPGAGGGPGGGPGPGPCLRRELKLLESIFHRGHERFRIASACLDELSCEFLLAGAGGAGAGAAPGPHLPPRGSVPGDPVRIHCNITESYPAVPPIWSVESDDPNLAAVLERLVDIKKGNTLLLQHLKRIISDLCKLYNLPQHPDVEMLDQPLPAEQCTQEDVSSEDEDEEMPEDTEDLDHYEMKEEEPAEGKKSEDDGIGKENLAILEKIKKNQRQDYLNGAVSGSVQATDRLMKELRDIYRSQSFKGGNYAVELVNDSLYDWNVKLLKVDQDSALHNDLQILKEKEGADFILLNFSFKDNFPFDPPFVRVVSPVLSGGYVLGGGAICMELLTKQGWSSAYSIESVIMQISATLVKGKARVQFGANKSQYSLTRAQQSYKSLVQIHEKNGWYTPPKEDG
UniProt Q9H832, sequence (whole entry, looked up): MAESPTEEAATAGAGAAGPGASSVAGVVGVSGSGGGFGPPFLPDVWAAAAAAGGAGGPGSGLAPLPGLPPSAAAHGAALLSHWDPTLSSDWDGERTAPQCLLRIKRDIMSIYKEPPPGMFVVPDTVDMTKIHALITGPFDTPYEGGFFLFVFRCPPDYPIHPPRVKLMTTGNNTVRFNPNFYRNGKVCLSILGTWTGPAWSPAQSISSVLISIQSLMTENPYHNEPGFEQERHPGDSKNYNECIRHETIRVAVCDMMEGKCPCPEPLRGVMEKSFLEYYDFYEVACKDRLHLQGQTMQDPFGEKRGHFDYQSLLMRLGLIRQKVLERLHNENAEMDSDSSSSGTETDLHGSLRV
UniProt Q712K3, sequence (whole entry, looked up): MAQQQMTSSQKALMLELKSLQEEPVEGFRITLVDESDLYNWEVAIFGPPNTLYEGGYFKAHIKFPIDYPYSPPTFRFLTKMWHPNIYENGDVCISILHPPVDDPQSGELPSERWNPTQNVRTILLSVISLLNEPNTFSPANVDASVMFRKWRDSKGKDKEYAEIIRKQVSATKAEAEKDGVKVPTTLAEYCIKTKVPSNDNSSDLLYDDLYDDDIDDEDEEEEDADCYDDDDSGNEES
UniProt Q9NPD8, sequence (whole entry, looked up): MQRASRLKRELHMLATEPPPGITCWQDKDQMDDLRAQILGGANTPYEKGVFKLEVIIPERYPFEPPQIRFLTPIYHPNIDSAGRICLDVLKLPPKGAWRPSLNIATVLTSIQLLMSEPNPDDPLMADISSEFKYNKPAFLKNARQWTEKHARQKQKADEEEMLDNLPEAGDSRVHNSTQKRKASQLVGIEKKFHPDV
UniProt P68036, sequence (whole entry, looked up): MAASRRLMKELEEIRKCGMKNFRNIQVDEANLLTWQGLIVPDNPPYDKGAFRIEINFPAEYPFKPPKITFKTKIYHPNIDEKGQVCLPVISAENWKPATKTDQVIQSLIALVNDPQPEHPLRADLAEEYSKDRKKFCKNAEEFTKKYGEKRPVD

Series 1
Target: Fragile X messenger ribonucleoprotein 1, C-terminal low-complexity region (Fmr1, Mus musculus, UniProt P35922)
Technique: RNA Bind-n-Seq
Form: RNA
Sample: in vitro
Tested at: 200 nM
Setting: whole 134-nt RNA, ends assumed
Together with: 150 mM KCl
Relative to: input library
Direction: higher = stronger binding
Endpoint: log2 enrichment
Shared flanks, not repeated: GGGAGUUCUACAGUCCGACGAUC … UGGAAUUCUCGGGUGUCAAGG
UGGCCCUGGUGGCAUGCGGGGAGGAAGAGGUGGCCUCAUGGAUCGUGGUGGUCCCGGUGGAAUGUUCAGAGGUGGCCGUGGUGGCGACAG: 0.0177
UGGGAGGUGGAUUUUGUUUAAUUUUUUAGCUCAUUUCCAGGGGUGGGAAUUUUUUUUUAAUAUGUGUCAUGAAUAAAGUUGUUUUUGAAA: 0.195
CACAGACAACACGCACCCACACAGACACAGAGGGAAGGGGUUGGGAUGGGGACAGGGUGCACGGCAGGGCGGGGUAGGACCCCAGCCCCU: 1.22
GUCCUGUGCUACACAUCGUAUGUACCGAAUCAAACCCCCAAACCCCCAAAUUUUUAAAAAAGUAUUAUGUUACGCCGUUCGGAUCUGCAC: -0.227
UCCUGUGCUACACAUCGUAUGUACCGAAUCGGGGAAAAAGGGGUUUUUGGGGUUUGGGGAAAGUAUUAUGUUACGCCGUUCGGAUCUGCA: 0.74
CAAGUCCUGUGCUACACAUCGUAUGUACCGAAUCGGGAGGGAAAAAAAGGGAGGGAAAGUAUUAUGUUACGCCGUUCGGAUCUGCACUUC: 0.804
CCUGUGCUACACAUCGUAUGUACCGAAUCGGAAAAAAAGGGAAAAAAAGGGAAAAAAAGGGAAAGUAUUAUGUUACGCCGUUCGGAUCUG: -1.21
GUCCUGUGCUACACAUCGUAUGUACCGAAUCGGGAAAAAGGGGAAAAAGGGAAAAAGGAAAGUAUUAUGUUACGCCGUUCGGAUCUGCAC: -0.28
CCUCAAGUCCUGUGCUACACAUCGUAUGUACCGAAUCGGGUUGGGUUGGUUGGAAAGUAUUAUGUUACGCCGUUCGGAUCUGCACUUCCA: 0.374

Series 2
Target: RING finger protein unkempt homolog, zinc fingers 1-6, SBP tag (UNK, Homo sapiens, UniProt Q9C0B0, residues 30-357)
UniProt Q9C0B0, sequence (30-357, looked up): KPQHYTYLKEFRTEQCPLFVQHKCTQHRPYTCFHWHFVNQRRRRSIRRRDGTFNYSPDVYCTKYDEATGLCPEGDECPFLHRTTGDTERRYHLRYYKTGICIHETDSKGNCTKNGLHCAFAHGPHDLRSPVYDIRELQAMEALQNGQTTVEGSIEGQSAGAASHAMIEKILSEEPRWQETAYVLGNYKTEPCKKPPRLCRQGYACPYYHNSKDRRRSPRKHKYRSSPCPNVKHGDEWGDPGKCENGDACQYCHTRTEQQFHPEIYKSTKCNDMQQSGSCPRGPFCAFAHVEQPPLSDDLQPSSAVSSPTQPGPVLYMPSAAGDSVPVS
Technique: RNA Bind-n-Seq
Form: RNA
Sample: in vitro
Tested at: 100 nM
Setting: RNA with constant flanks, vertebrate orthologous sites, ends assumed
Relative to: input RNA pool
Direction: higher = stronger binding
Endpoint: bound/input enrichment
Shared flanks, not repeated: GGGAGUUCUACAGUCCGACGAUC … CAACAGAGGAUUGAGCAUCA
CGUGCUUAUGCUCUUCUAUGAGAGAGAUGAAUUGGGGAGAACUGUCUCCGUUUUAUAGAUUAAUUUCUUUCUAAAUUAUGACCAAAAAUAUUUUGCUAUUUCUUUCUUUGUAUAUGGACA: 0.565 ratio
ACUGCUGUUAAUGCACUGUUUCAGCCCUUUUAUGAGGUUAGUGUAAUCUAGGAGAUUUUAUAGUUUUAUUUUAAUGAAAACCGGAUUGAUGCACAGUAGUGGGAAGUACAUUGUCUUUUA: 1.24 ratio
CCCCGAUUUUAGAUGUGAUAUCUUGGCUUUCAUUCCAGUUUGUUUUUGUCUUUUCUUGUUUAGAUACCAAUCUUUUAAAUUCUUGCAUUUUAGUAAGAAAGCUACCUUUUUAUGGAUGUU: 1.62 ratio
UCCUCUGAACCCCAUAUCUUCUGUUUCAUAAUGCAGAAGUGUUCUUUUGAAUUAUAUUAGUGGACUUGUUUUAAUUUUAGAAAAACUUCCAGUAAGAUACUGUGGGCUAAUAUGGAAAAA: 1.95 ratio
GUUGUGACCCAUUUAACAUACAUAAAAAAUUAGCCAAAAAAAAUUUGCAUGUAAUUGACUUAGAUGAUGCCACUUUUCUGAGUGCUAAAUUUGGAAGACAGCUUGUACCUGGUUGGAAGC: 1.44 ratio
UUCGCUGAGCGACAGCCUGCCGUCGGUGGCGGAGUCGCACUCGAGCCAUUUUUCCGAGUUCAGCUGCUCGGACCUGGAGAGCAUGAAGACUUCCUGCAGUCACGGGUCCAGUGACUACCA: 0.217 ratio
UUGGGAGCAGCCCUUCAAACAGAAAUAGUAGUAAAAAAACCAAACAAAAUGAUACUUGCGUAGAAAAAACAGAAGUUAAAUCAUGGAAAGUAAAUGCUGCCAGUGUUCCAGGCCCUAAAG: 0.712 ratio
AGUGCUGAAUAGUAUUAAACGUUUUCGUCUUCCUUUACCUUUUAUCCCCUACCUAAUAUCUAGUCUACUUUUUUAAAUUUCAAAUUUCACUGCUCUUUGAAUUGAUAAUUUCAAUUUUCA: 7.16 ratio

Series 3
Sequence: B1 (MID1 RING domain)
Technique: yeast two-hybrid
Sample: yeast
Setting: mostly zero background
Relative to: not given
Direction: higher = stronger interaction
Endpoint: lacZ reporter activity
B1: MID1 RING domain (UniProt O15344); chain METLESELTCPICLELFEDPLLLPCAHSLCFNCAHRILVSHCATNESVESITAFQCPTCRHVITLSQRGL
UBE2G1 UBC core domain (UniProt P62253): 0
UBE2R2 UBC core domain (UniProt Q712K3): 0
UBE2L3 UBC core domain (UniProt P68036): 0
UBE2Q1 UBC core domain (UniProt Q7Z7E8): 0
UBE2Z UBC core domain (UniProt Q9H832): 0
UBE2T UBC core domain (UniProt Q9NPD8): 0
UBE2E3 UBC core domain (UniProt Q969T4): 0

Series 4
Target: CCNF, cyclin fold, Cln2 fusion (human)
Technique: yeast growth competition, sequencing
Sample: yeast
Setting: strong parent motif
Relative to: not given
Direction: higher = stronger binding
Endpoint: normalised enrichment score
Parent: E2F1 docking peptide (human); PPVKRRLDLETDH
PPVKRRLDLFTDH [E10F]: 6.74
PPVKRREDLETDH [L7E]: 0.268
PPVVRRLDLETDH [K4V]: 6.08
PPVKRRLDLETDM [H13M]: 7.71
PPVKRRVDLETDH [L7V]: 0.0938
PPVKRRLQLETDH [D8Q]: 7.47
PPVKRRLDLETDS [H13S]: 6.58
PPVKRRLDLCTDH [E10C]: 7.45
PPVKGRLDLETDH [R5G]: 1.07
PPVWRRLDLETDH [K4W]: 3.9
PPRKRRLDLETDH [V3R]: 0.751
PPVKRRLDLETDV [H13V]: 7.79
PPVKRCLDLETDH [R6C]: 4.75
PPVKYRLDLETDH [R5Y]: -0.0888
PPVKRRLDLENDH [T11N]: 5.62
LPVKRRLDLETDH [P1L]: 6.41
PPVKRRLDLNTDH [E10N]: 7.04
VPVKRRLDLETDH [P1V]: 5.48
PPVKRSLDLETDH [R6S]: 2.95
PPVKRWLDLETDH [R6W]: 4.28
PPVKRRLDLETDR [H13R]: 5.89
PKVKRRLDLETDH [P2K]: 7.37
PPVKRRYDLETDH [L7Y]: 0.0693
PPVKRFLDLETDH [R6F]: 2.75

Excerpt of the above (series 3):
UBE2L3 UBC core domain (UniProt P68036): 0
UBE2Q1 UBC core domain (UniProt Q7Z7E8): 0
UBE2E3 UBC core domain (UniProt Q969T4): 0
UBE2R2 UBC core domain (UniProt Q712K3): 0
UBE2T UBC core domain (UniProt Q9NPD8): 0
UBE2G1 UBC core domain (UniProt P62253): 0
UBE2Z UBC core domain (UniProt Q9H832): 0
